Measured values pooled from the literature.
Parts stem from different laboratories: compare values within a part only. Changes are numbered by the printed parent chain.

Block 1
Target: CEP164, C-terminal peptide (human)
Method: DHFR complementation, deep sequencing
Matrix: yeast
Setting: single substitutions, model-inferred values
Reference: wild type
Reading: higher = weaker binding
Parent: PDZK1, PDZ domain 2 (human); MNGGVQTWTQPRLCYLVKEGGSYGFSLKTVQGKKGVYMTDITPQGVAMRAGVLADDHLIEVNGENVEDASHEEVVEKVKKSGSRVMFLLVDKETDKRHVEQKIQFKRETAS; partner HNRVKVYRF
Variant	binding free energy change [kcal/mol]
V74G	1.23
I103D	-0.0914
E19A	0.151
V30I	-0.0694
M38Y	1.39
Y15E	-0.139
S81C	0.179
A69P	0.422

Block 2
Target: ABI1, truncated, D143A, DHFR fusion (Arabidopsis thaliana)
Method: DHFR PCA, deep sequencing
Matrix: yeast
Setting: methotrexate growth selection, single substitutions
Together with: (+)-ABA 2500 µM
Reference: wild-type fitted maximum
Reading: higher = stronger binding
Parent: PYL1, truncated, DHFR fusion (Arabidopsis thaliana); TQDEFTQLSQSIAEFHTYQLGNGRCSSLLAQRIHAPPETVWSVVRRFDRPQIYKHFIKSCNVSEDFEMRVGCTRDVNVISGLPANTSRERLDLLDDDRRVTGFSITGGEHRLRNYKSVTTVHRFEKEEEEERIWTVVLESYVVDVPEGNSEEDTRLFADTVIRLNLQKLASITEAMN
Variant	relative binding score [%]
R69S	95.5
E139T	102
L169M	82.5
I105F	39.9
E128L	102
L28S	78.8
T101W	73.8
S9L	94.1

Block 3
Target: vanadate, free oxyanion
Method: microfluidic competitive inhibition
Matrix: in vitro, cell-free expressed
Tested at: not given
Setting: derived from inhibition constants, unchanged parent 676 nM
Reading: lower = stronger binding
Parent: PafA, mature enzyme, eGFP fusion (Elizabethkingia meningoseptica, UniProt Q9KJX5); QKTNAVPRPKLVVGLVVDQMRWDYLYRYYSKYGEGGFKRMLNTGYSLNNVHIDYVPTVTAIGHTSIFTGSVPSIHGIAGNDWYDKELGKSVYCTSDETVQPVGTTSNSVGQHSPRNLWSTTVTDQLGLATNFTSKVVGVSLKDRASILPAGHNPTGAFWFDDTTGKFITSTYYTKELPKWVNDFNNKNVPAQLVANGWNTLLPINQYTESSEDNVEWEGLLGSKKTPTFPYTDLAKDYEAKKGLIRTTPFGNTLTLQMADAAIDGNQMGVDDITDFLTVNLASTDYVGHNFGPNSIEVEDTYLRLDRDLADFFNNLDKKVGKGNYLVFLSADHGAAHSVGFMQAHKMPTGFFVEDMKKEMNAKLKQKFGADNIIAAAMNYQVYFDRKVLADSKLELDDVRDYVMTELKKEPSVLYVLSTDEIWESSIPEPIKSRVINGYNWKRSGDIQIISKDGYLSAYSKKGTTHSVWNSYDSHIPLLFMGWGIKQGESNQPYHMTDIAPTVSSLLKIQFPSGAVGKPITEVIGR
Variant	oxyanion analog dissociation constant
H289V	37 µM
K393V	865 nM
D355V	605 nM
G445A	417 nM
Y380V	1.07 µM
F276G	1.11 µM
W441G	407 nM
H333V	1.16 µM
G484V	682 nM
V215G	538 nM
P428G	832 nM
S210G	578 nM
D473G	710 nM
S46V	585 nM
G138A	515 nM
V189A	698 nM
G219V	719 nM
F158G	4.12 µM

Block 4
Target: CCNE2, cyclin fold, Cln2 fusion (human)
Method: yeast growth competition, sequencing
Matrix: yeast
Setting: strong parent motif
Reference: not given
Reading: higher = stronger binding
Parent: viral docking peptide; TSVRRALFTGGSD; partner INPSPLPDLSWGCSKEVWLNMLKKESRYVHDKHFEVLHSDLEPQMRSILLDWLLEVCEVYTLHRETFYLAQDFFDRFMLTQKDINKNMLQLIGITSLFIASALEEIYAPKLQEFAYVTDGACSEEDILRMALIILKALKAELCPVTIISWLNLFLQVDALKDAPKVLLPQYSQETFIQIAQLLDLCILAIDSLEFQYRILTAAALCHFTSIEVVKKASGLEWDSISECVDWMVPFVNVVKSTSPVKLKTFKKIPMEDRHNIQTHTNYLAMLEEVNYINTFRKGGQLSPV
Variant	normalised enrichment score
TSVRRALFTMGSD [G10M]	2.91
TSVRRALFNGGSD [T9N]	2.7
TRVRRALFTGGSD [S2R]	3.5
TSVHRALFTGGSD [R4H]	-0.118
TSVREALFTGGSD [R5E]	-0.275
TSVRRAIFTGGSD [L7I]	0.522
TSVIRALFTGGSD [R4I]	1.89
